# Experimental data gathered from unrelated publications.
# Lines come from different studies, so protocols differ.
# Organism: Acinetobacter baumannii
Structure (SMILES),assay,system,conditions,MIC
CC(=O)N[C@@H](CCCCN)C(=O)N[C@@H](CCCCN)C(=O)N[C@@H](C)C(=O)N[C@@H](CC(C)C)C(=O)N[C@@H](CCCCN)C(=O)N[C@@H](CC(C)C)C(=O)N[C@@H](CC(C)C)C(=O)N[C@@H](CCCCN)C(=O)N[C@@H](CCCCN)C(=O)N1CCC[C@H]1C(=O)N[C@@H](CC(C)C)C(=O)N[C@@H](CCCCN)C(=O)N[C@@H](CC(C)C)C(=O)N[C@@H](CC(C)C)C(=O)N[C@@H](CCCCN)C(N)=O,broth microdilution,ATCC 17978,"18 h, 37 °C, compound alone",> 80 µM
CC[C@H](C)[C@H](NC(=O)[C@H](CCCCN)NC(=O)[C@H](CCCCN)NC(=O)CNC(=O)[C@H](CCCCN)NC(=O)[C@H](CC(C)C)NC(=O)[C@H](CCCCN)NC(=O)[C@H](CCCNC(=N)N)NC(=O)[C@@H](NC(=O)[C@H](CC(C)C)NC(=O)[C@H](CCCNC(=N)N)NC(=O)[C@@H](N)CCCNC(=N)N)[C@@H](C)CC)C(=O)N[C@@H](Cc1ccc(O)cc1)C(=O)N[C@@H](CC(C)C)C(=O)N[C@@H](Cc1ccc(O)cc1)C(=O)N[C@@H](Cc1ccccc1)C(=O)N[C@@H](CCCCN)C(=O)N[C@@H](CC(C)C)C(=O)N[C@@H](CCC(N)=O)C(=O)N[C@@H](CC(C)C)C(=O)N[C@@H](CC(C)C)C(=O)N[C@@H](CCCCN)C(=O)N[C@@H](CCCCN)C(N)=O,,"KCCM 40203, Mueller-Hinton broth",24 h,4 µM
CC[C@@H](C)[C@@H](N)C(=O)N[C@@H](C(=O)N[C@H](Cc1ccc(O)cc1)C(=O)N[C@@H](C(=O)N[C@H](CCN)C(=O)N[C@H](CC(C)C)C(=O)N[C@H](CO)C(=O)N[C@H](CCN)C(=O)N[C@@H](C(=O)N[C@H](CCN)C(=O)N[C@H](Cc1c[nH]cn1)C(=O)N[C@H](CCN)C(=O)N[C@H](C)C(=O)N[C@H](CCN)C(=O)N[C@H](CCN)C(N)=O)[C@H](C)CC)[C@H](C)CC)[C@H](C)CC,broth microdilution,"CDC 0274, Mueller-Hinton broth",,4 µg/mL
CC[C@H](C)[C@H](NC(=O)CN)C(=O)NCC(=O)N[C@@H](C)C(=O)N[C@H](C(=O)N[C@@H](CC(C)C)C(=O)N[C@@H](CCCCN)C(=O)N[C@H](C(=O)N[C@@H](CC(C)C)C(=O)N[C@H](C(=O)N[C@H](C(=O)NCC(=O)N[C@@H](CC(C)C)C(=O)N1CCC[C@H]1C(=O)N[C@@H](C)C(=O)N[C@@H](CC(C)C)C(=O)N[C@H](C(=O)N[C@@H](CO)C(=O)N[C@@H](Cc1c[nH]c2ccccc12)C(=O)N[C@H](C(=O)N[C@@H](CCCCN)C(=O)N[C@@H](CCCNC(=N)N)C(=O)N[C@@H](CCCCN)C(=O)N[C@@H](CCCNC(=N)N)C(=O)N[C@@H](CCC(N)=O)C(=O)N[C@@H](CCC(N)=O)C(N)=O)[C@@H](C)CC)[C@@H](C)CC)[C@@H](C)O)[C@@H](C)O)C(C)C)C(C)C,,CCARM 12006 carbapenem-resistant,,16 µM
CC[C@H](C)[C@H](NC(=O)[C@H](CCCCN)NC(=O)[C@@H](NC(=O)[C@@H](NC(=O)[C@H](CC(C)C)NC(=O)[C@H](CCCNC(=N)N)NC(=O)[C@@H](NC(=O)[C@H](CC(C)C)NC(=O)[C@H](CCCNC(=N)N)NC(=O)CNC(=O)[C@H](Cc1ccccc1)NC(=O)[C@@H](N)CCCNC(=N)N)[C@@H](C)CC)[C@@H](C)CC)C(C)C)C(=O)N[C@@H](C)C(=O)N[C@@H](CCCNC(=N)N)C(=O)N[C@@H](CCCNC(=N)N)C(=O)N[C@@H](C)C(=O)N[C@@H](Cc1c[nH]cn1)C(=O)N[C@@H](CCCNC(=N)N)C(=O)N[C@@H](C)C(=O)N[C@@H](CCCNC(=N)N)C(=O)N[C@@H](CO)C(=O)N[C@@H](C)C(=O)N[C@H](C(=O)N[C@@H](CCCCN)C(=O)N[C@@H](C)C(=O)N[C@@H](C)C(=O)N[C@@H](CO)C(=O)N[C@@H](CC(N)=O)C(=O)N[C@H](C(=O)N[C@@H](C)C(=O)N[C@@H](CCC(=O)O)C(=O)N[C@@H](CC(C)C)C(=O)N[C@@H](C)C(=O)N[C@@H](Cc1c[nH]cn1)C(=O)NCC(=O)N[C@@H](CCC(=O)O)C(=O)O)C(C)C)C(C)C,"bacterial growth, broth microdilution",cation-adjusted Mueller Hinton broth,"18 h, 37 °C",≤ 0.063 µM
CC[C@H](C)[C@H](NC(=O)[C@H](CC(C)C)NC(=O)[C@H](CCCNC(=N)N)NC(=O)[C@@H](N)CCCNC(=N)N)C(=O)N[C@@H](CCCNC(=N)N)C(=O)N[C@@H](CCCCN)C(=O)N[C@@H](CC(C)C)C(=O)N[C@@H](CCCCN)C(=O)NCC(=O)N1CCC[C@H]1C(=O)N[C@H](C(=O)N[C@H](C(=O)N[C@@H](Cc1ccc(O)cc1)C(=O)N[C@@H](CC(C)C)C(=O)N[C@@H](Cc1ccc(O)cc1)C(=O)N[C@@H](Cc1ccccc1)C(=O)N[C@@H](CCCCN)C(=O)N[C@@H](CC(C)C)C(=O)N[C@@H](CCC(N)=O)C(=O)N[C@@H](CC(C)C)C(=O)N[C@@H](CC(C)C)C(=O)N[C@@H](CCCCN)C(=O)N[C@@H](CCCCN)C(N)=O)[C@@H](C)CC)[C@@H](C)CC,,"KCCM 40203, Mueller-Hinton broth",24 h,32 µM
CC(C)C[C@H](NC(=O)[C@@H](NC(=O)[C@H](CCCNC(=N)N)NC(=O)[C@H](CCC(N)=O)NC(=O)[C@H](Cc1ccccc1)NC(=O)[C@H](Cc1ccc(O)cc1)NC(=O)[C@H](CC(N)=O)NC(=O)[C@H](Cc1c[nH]c2ccccc12)NC(=O)[C@@H](NC(=O)[C@H](CCCNC(=N)N)NC(=O)[C@H](CCCCN)NC(=O)[C@@H](N)Cc1ccccc1)C(C)C)C(C)C)C(=O)N[C@H](C(=O)N[C@@H](CCCCN)C(=O)N[C@@H](CCCCN)C(N)=O)C(C)C,broth dilution,ATCC 19606,,> 100 µM
CC[C@H](C)[C@H](NC(=O)[C@H](CCCNC(=N)N)NC(=O)[C@H](CCCNC(=N)N)NC(=O)[C@H](CCCNC(=N)N)NC(=O)[C@H](CCCNC(=N)N)NC(=O)[C@H](CC(C)C)NC(=O)[C@H](CCCNC(=N)N)NC(=O)[C@H](CO)NC(=O)[C@@H](N)CO)C(=O)N[C@H](C(=O)N[C@@H](CC(C)C)C(=O)N[C@@H](CCCNC(=N)N)C(=O)N[C@@H](CCCNC(=N)N)C(=O)N[C@@H](CCCNC(=N)N)C(=O)N[C@@H](CCCNC(=N)N)C(=O)N[C@@H](Cc1ccccc1)C(=O)N[C@@H](CO)C(=O)N[C@@H](C)C(=O)N[C@@H](Cc1ccc(O)cc1)C(N)=O)C(C)C,broth microdilution,ATCC 17978,highest value reported,16 µM
CC[C@H](C)[C@H](NC(=O)CNC(=O)[C@H](CC(=O)O)NC(=O)[C@H](CCCNC(=N)N)NC(=O)[C@@H](NC(=O)[C@H](CC(N)=O)NC(=O)[C@H](CCCNC(=N)N)NC(=O)CNC(=O)[C@@H](NC(=O)[C@H](CCCCN)NC(=O)[C@H](CCC(=O)O)NC(=O)[C@@H](NC(=O)[C@H](CCCCN)NC(=O)[C@H](CCCCN)NC(=O)[C@H](Cc1ccccc1)NC(=O)[C@@H](NC(=O)[C@H](CCCCN)NC(=O)[C@H](Cc1c[nH]c2ccccc12)NC(=O)[C@@H](N)CCCNC(=N)N)[C@@H](C)CC)[C@@H](C)CC)C(C)C)C(C)C)C(=O)N[C@H](C(=O)N[C@@H](CCCCN)C(=O)N[C@@H](C)C(=O)NCC(=O)N1CCC[C@H]1C(=O)N[C@@H](C)C(=O)N[C@H](C(=O)N[C@@H](C)C(=O)N[C@H](C(=O)N[C@H](C(=O)NCC(=O)N[C@@H](CCC(N)=O)C(=O)N[C@@H](C)C(=O)N[C@@H](C)C(=O)N[C@H](C(=O)N[C@H](C(=O)N[C@H](C(=O)N[C@@H](CCCCN)C(N)=O)C(C)C)C(C)C)[C@@H](C)O)C(C)C)C(C)C)C(C)C)[C@@H](C)CC,,CCARM 12005 carbapenem-resistant,,1 µM
C[C@H]1COc2c(N3CCN(C)CC3)c(F)cc3c(=O)c(C(=O)O)cn1c23,,carbapenem-resistant clinical isolate,,> 4 µg/mL
